# Published values of several laboratories.
# Each line is one published result; not all experiments were run side by side.
# Read-out: metabolic stability
# Species: human
SMILES,medium,concentration,pH,quantity,value
CCc1nc(N)nc(N)c1C#CC(C)c1cc(-c2cc(C)nc(C)c2)ccc1Cl (centres unmarked),hepatocytes,1 µM,,scaled CLint,~0.019 mL/min/kg
C=C(C)C(=O)Nc1ccc(-c2c(-c3ccc(Oc4nccc(C)n4)cc3)c3c(N)ncnc3n2C)cc1,hepatocytes,,,hepatocyte CLint,< 2.2 µL/min/10⁶ cells
CCN(CC)CC#CCNc1ccnc2cc(Cl)ccc12,liver microsomes,1 µM,pH 7.4,scaled CLint,159 mL/min/kg
CCC/C(=C\C1=C(OC)C(=O)c2ccccc2C1=O)C(=O)NOC,liver microsomes,1 µM,pH 7.4,scaled CLint,40.6 mL/min/kg
CCNCC#CCNc1ccnc2cc(Cl)ccc12,liver microsomes,1 µM,pH 7.4,scaled CLint,8 mL/min/kg
COc1ccc2c(c1OCc1ccccc1)C[C@@H](C(=O)O)N(c1nc3ccc(C#N)cc3o1)C2,liver microsomes,1 µM,pH 7.4,scaled CLint,1.5 mL/min/kg
CCC/C(=C\C1=C(F)C(=O)c2ccccc2C1=O)C(=O)N(CC)CC,liver microsomes,1 µM,pH 7.4,scaled CLint,2.9 mL/min/kg
COC[C@H]1C[C@H]2[C@@H](C)SC(N)=N[C@@]2(c2ccc(F)cc2F)CO1,liver microsomes,,,scaled CLint,< 8 mL/min/kg
